Published values pooled from the literature.
Converted amounts (≈) assume the structure as drawn. Bridge positions count the residues as written; N and C are the ends. Ends that are not written are not given here. * marks the point of attachment.
Organism: Staphylococcus aureus

Substance | test | test system | setting | how to read | measurement | value
CC[C@H](C)[C@H](NC(=O)[C@@H](NC(=O)CN)C(C)C)C(=O)N[C@@H](Cc1ccccc1)C(=O)N[C@@H](CC(N)=O)C(=O)N[C@@H](C)C(=O)N[C@@H](CC(C)C)C(=O)N[C@@H](CCCCN)C(=O)NCC(=O)N[C@H](C(=O)N[C@@H](C)C(=O)N[C@@H](CCCCN)C(=O)N[C@H](C(=O)N[C@H](C(=O)N[C@@H](C)C(=O)N[C@@H](C)C(=O)N[C@@H](CCC(N)=O)C(=O)N[C@@H](CC(C)C)C(=O)N[C@@H](CC(C)C)C(=O)N[C@@H](CCCCN)C(=O)N[C@@H](CCCCN)C(=O)N[C@@H](C)C(=O)N[C@@H](CCCNC(=N)N)C(N)=O)C(C)C)[C@@H](C)O)C(C)C | persister cells in biofilm | MRSA ATCC BAA-1707 | together with: vancomycin 4 µg/mL | – | MBEC | 256 µM
CO/N=C(\C(=O)N[C@@H]1C(=O)N2C(C(=O)O)=C(CSc3nc(=O)c(=O)[nH]n3C)CS[C@H]12)c1csc(N)n1 | checkerboard titration | ATCC 38591 oxacillin-resistant | together with: ranalexin | – | FIC index | 1
CN[C@H](CC(C)C)C(=O)N[C@H]1C(=O)N[C@@H](CC(N)=O)C(=O)N[C@H]2C(=O)N[C@H]3C(=O)N[C@H](C(=O)N[C@H](C(=O)O)c4cc(O)cc(O)c4-c4cc3ccc4O)[C@H](O)c3ccc(c(Cl)c3)Oc3cc2cc(c3O[C@@H]2O[C@H](CO)[C@@H](O)[C@H](O)[C@H]2O[C@H]2C[C@](C)(N)[C@H](O)[C@H](C)O2)Oc2ccc(cc2Cl)[C@H]1O | 99.9% killing of intracellular bacteria | RAW264.7, MRSA USA100 | 24 h | – | intracellular bactericidal concentration | > 706 µM
CCCCCCCCOc1c(OC)cc(NC(C)CCCNC(=O)C(N)CCSC)c2nc(C(C)(C)C)ccc12 (stereo not shown) | microbial growth | ATCC33591 MRSA | drug-resistant strain | – | IC50 | 10.7 mg/L (≈ 18.7 µM)
CC(C)C[C@H](NC(=O)[C@H](CCCCN)NC(=O)[C@H](CC(C)C)NC(=O)[C@H](Cc1c[nH]c2ccccc12)NC(=O)[C@H](CCCNC(=N)N)NC(=O)[C@H](Cc1ccccc1)NC(=O)[C@H](CCCNC(=N)N)NC(=O)[C@H](CCCNC(=N)N)NC(=O)[C@H](CCCCN)NC(=O)[C@@H](N)CCCCN)C(=O)N[C@@H](CCCCN)C(=O)O | bacterial killing, colony count | ATCC 12600 | 1 h, pH 7, 37 °C | – | EC50 | 10.6 mg/L (≈ 6.8 µM)
CC[C@H](C)[C@H](N)C(=O)N[C@@H](CC(C)C)C(=O)N1CCC[C@H]1C(=O)N[C@@H](Cc1c[nH]c2ccccc12)C(=O)N[C@@H](CCCCN)C(=O)N[C@@H](Cc1c[nH]c2ccccc12)C(=O)N1CCC[C@H]1C(=O)N[C@@H](Cc1c[nH]c2ccccc12)C(=O)N[C@@H](Cc1c[nH]c2ccccc12)C(=O)N1CCC[C@H]1C(=O)N[C@@H](Cc1c[nH]c2ccccc12)C(=O)N[C@@H](CCCNC(=N)N)C(=O)N[C@@H](CCCNC(=N)N)C(N)=O | broth microdilution | methicillin-resistant clinical isolates, Mueller-Hinton broth | 18 h, 35 °C | – | MIC50 | 8 mg/L (≈ 4.2 µM)
CCCCCCCOc1c(OC)cc(NC(C)CCCNC(=O)C(N)CCCNC(=N)N)c2nc(C(C)(C)C)ccc12 (stereo not shown) | bacterial growth | MRSA ATCC 33591 | – | – | IC50 | > 20 mg/L
CC[C@H](C)[C@H](NC(=O)[C@@H](NC(=O)CN)C(C)C)C(=O)N[C@@H](Cc1ccccc1)C(=O)N[C@@H](CC(N)=O)C(=O)N[C@@H](C)C(=O)N[C@@H](CC(C)C)C(=O)N[C@@H](CCCCN)C(=O)NCC(=O)N[C@H](C(=O)N[C@@H](C)C(=O)N[C@@H](CCCCN)C(=O)N[C@H](C(=O)N[C@H](C(=O)N[C@@H](C)C(=O)N[C@@H](C)C(=O)N[C@@H](CCC(N)=O)C(=O)N[C@@H](CC(C)C)C(=O)N[C@@H](CC(C)C)C(=O)N[C@@H](CCCCN)C(N)=O)C(C)C)[C@@H](C)O)C(C)C | persister cells in biofilm | MRSA ATCC BAA-1707 | together with: vancomycin 4 µg/mL | – | MBEC | 512 µM
CC[C@H](C)[C@H](NC(=O)CN)C(=O)NCC(=O)N[C@@H](C)C(=O)N[C@H](C(=O)N[C@@H](CC(C)C)C(=O)N[C@@H](CCCCN)C(=O)N[C@H](C(=O)N[C@@H](CC(C)C)C(=O)N[C@H](C(=O)N[C@H](C(=O)NCC(=O)N[C@@H](CC(C)C)C(=O)N1CCC[C@H]1C(=O)N[C@@H](C)C(=O)N[C@@H](CC(C)C)C(=O)N[C@H](C(=O)N[C@@H](CO)C(=O)N[C@@H](Cc1c[nH]c2ccccc12)C(=O)N[C@H](C(=O)N[C@@H](CCCCN)C(=O)N[C@@H](CCCNC(=N)N)C(=O)N[C@@H](CCCCN)C(=O)N[C@@H](CCCNC(=N)N)C(=O)N[C@@H](CCC(N)=O)C(=O)N[C@@H](CCC(N)=O)C(N)=O)[C@@H](C)CC)[C@@H](C)CC)[C@@H](C)O)[C@@H](C)O)C(C)C)C(C)C | – | ATCC 8530 | – | – | MBC | 2 µM
vancomycin | – | 10, female SHK mice, sepsis | intravenous, 30 min after infection, 10 days observation | – | ED50 | 4.1 mg/kg
CC[C@H]1OC(=O)[C@H](C)[C@@H](O[C@H]2C[C@@](C)(OC)[C@@H](O)[C@H](C)O2)[C@H](C)[C@@H](O[C@@H]2O[C@H](C)C[C@H](N(C)C)[C@H]2O)[C@](C)(OC)C[C@@H](C)C(=O)[C@H](C)[C@@H](O)[C@]1(C)O | checkerboard broth microdilution | ATCC 38591 oxacillin-resistant | together with: magainin II | – | FIC index | 1
CCCCOc1c(OC)cc(NC(C)CCCN)c2nc(C(C)(C)C)ccc12 (stereo not shown) | – | MRSA ATCC 33591 | – | – | MBC | > 20 mg/L
CC[C@H](C)[C@H](NC(=O)[C@H](CCCCN)NC(=O)[C@H](CCC(=O)O)NC(=O)[C@H](CCCCN)NC(=O)[C@H](CO)NC(=O)[C@H](CCCCN)NC(=O)[C@H](CCCNC(=N)N)NC(=O)[C@H](Cc1ccccc1)NC(=O)[C@H](Cc1ccccc1)NC(=O)[C@H](CC(=O)O)NC(=O)CNC(=O)[C@H](CC(C)C)NC(=O)[C@@H](N)CC(C)C)C(=O)NCC(=O)N[C@@H](CCCCN)C(=O)N[C@@H](CCC(=O)O)C(=O)N[C@@H](Cc1ccccc1)C(=O)N[C@@H](CCCCN)C(=O)N[C@@H](CCCNC(=N)N)C(=O)N[C@H](C(=O)N[C@H](C(=O)N[C@@H](CCC(N)=O)C(=O)N[C@@H](CCCNC(=N)N)C(=O)N[C@H](C(=O)N[C@@H](CCCCN)C(=O)N[C@@H](CC(=O)O)C(=O)N[C@@H](Cc1ccccc1)C(=O)N[C@@H](CC(C)C)C(=O)N[C@@H](CCCNC(=N)N)C(=O)N[C@@H](CC(N)=O)C(=O)N[C@@H](CC(C)C)C(=O)N[C@H](C(=O)N1CCC[C@H]1C(=O)N[C@@H](CCCNC(=N)N)C(=O)N[C@H](C(=O)N[C@@H](CCC(=O)O)C(=O)N[C@@H](CO)C(=O)O)[C@@H](C)O)C(C)C)[C@@H](C)CC)C(C)C)[C@@H](C)CC | – | JE2 SAUSA300_1865 vraR transposon mutant | 12.5% TSB | baseline: wild type over mutant | MIC ratio | 2 fold
CCCCCCCOc1c(OC)cc(NC(C)CCCNC(=O)C(N)CCCN)c2nc(C(C)(C)C)ccc12 (stereo not shown) | – | MRSA ATCC 33591 | – | – | MBC | > 20 mg/L
CC(C)C[C@H](NC(=O)[C@H](Cc1c[nH]c2ccccc12)NC(=O)[C@H](CCCNC(=N)N)NC(=O)[C@@H](N)Cc1ccccc1)C(=O)N[C@@H](CCCNC(=N)N)C(=O)N[C@@H](CCCCN)C(=O)N[C@@H](Cc1c[nH]c2ccccc12)C(=O)N[C@@H](Cc1ccccc1)C(=O)N[C@@H](CCCNC(=N)N)C(=O)N[C@@H](CCCNC(=N)N)C(=O)O | bacterial killing, colony count | ATCC 12600 | 1 h, pH 7, 37 °C | – | EC50 | 2.2 mg/L (≈ 1.42 µM)
CC[C@H](C)[C@H](NC(=O)[C@H](C)NC(=O)[C@@H](NC(=O)[C@H](C)NC(=O)CNC(C)=O)[C@@H](C)O)C(=O)N[C@@H](CCCCN)C(=O)N[C@@H](CCC(N)=O)C(=O)N[C@H](C(=O)N[C@@H](CCCCN)C(=O)N[C@@H](CCCCN)C(=O)N[C@@H](CC(C)C)C(=O)N[C@@H](Cc1ccccc1)C(=O)N[C@@H](CCCCN)C(=O)N[C@@H](CCCCN)C(=O)N[C@@H](CCCCN)C(=O)NCC(=O)NCC(N)=O)C(C)C | – | ATCC 25923 | 24 h, 37 °C | – | MBC | > 620 µM
CC[C@H](C)[C@H](NC(=O)CNC(=O)[C@H](CCC(=O)O)NC(=O)[C@H](CO)NC(=O)[C@@H](NC(=O)[C@H](CCCNC(=N)N)NC(=O)[C@H](CCCCN)NC(=O)[C@H](CCCCN)NC(=O)[C@H](C)NC(=O)[C@H](CO)NC(=O)[C@H](CC(N)=O)NC(=O)[C@H](CCC(=O)O)NC(=O)[C@H](CC(C)C)NC(=O)[C@H](CCCCN)NC(=O)[C@H](CCCCN)NC(=O)[C@H](C)NC(=O)[C@@H](NC(=O)[C@H](CCCCN)NC(=O)[C@H](CO)NC(=O)[C@H](CC(C)C)NC(=O)[C@H](Cc1c[nH]c2ccccc12)NC(=O)[C@@H](N)CO)[C@@H](C)O)[C@@H](C)CC)C(=O)N[C@@H](C)C(=O)N[C@H](C(=O)N[C@@H](C)C(=O)N[C@H](C(=O)N[C@@H](CCC(N)=O)C(=O)NCC(=O)NCC(=O)N1CCC[C@H]1C(=O)N[C@@H](CCCNC(=N)N)C(=O)O)[C@@H](C)CC)[C@@H](C)CC | broth microdilution | methicillin-resistant clinical isolates, Mueller-Hinton broth | 18 h, 35 °C | – | MIC50 | 32 mg/L (≈ 9.58 µM)
CCCCCCCCOc1c(OC)cc(NC(C)CCCNC(=O)C(N)Cc2ccccc2)c2nc(C(C)(C)C)ccc12 (stereo not shown) | bacterial growth | MRSA ATCC 33591 | – | – | IC50 | > 20 mg/L
ACPIFTKIQGTYRGKAKCK (disulfide 2-18 (inferred)) (disulfide) | – | ATCC 8530 | MBC, 2 h, pH 7.4, 37 °C, together with: E. coli K-235 LPS at peptide:LPS 1:5 w/w | – | antibacterial activity | inhibited
CCCCCCCOc1c(OC)cc(NC(C)CCCNC(=O)C(N)CCCCN)c2nc(C(C)(C)C)ccc12 (stereo not shown) | bacterial growth | MRSA ATCC 33591 | – | – | IC50 | > 20 mg/L
Myristoyl-SCLPKEEQIGKSTRGRKCRRKK (disulfide 2-18 (inferred)) (N-myristoyl, disulfide; Myristoyl = CCCCCCCCCCCCCC(=O)*) | – | ATCC 8530 | MBC, 2 h, pH 7.4, 37 °C, together with: E. coli K-235 LPS at peptide:LPS 1:5 w/w | – | antibacterial activity | inhibited
CCCCCCOc1c(OC)cc(NC(C)CCCNC(=O)C(N)Cc2ccccc2)c2nc(C(C)(C)C)ccc12 (stereo not shown) | microbial killing | ATCC33591 MRSA | drug-resistant strain | – | MBC | 20 mg/L
eremomycin pyrrolidide | – | 10, female SHK mice, sepsis | intravenous, 30 min after infection, 10 days observation | – | ED50 | 0.8 mg/kg
CCCCCCCOc1c(OC)cc(NC(C)CCCNC(=O)C(N)Cc2cc3ccccc3[nH]2)c2nc(C(C)(C)C)ccc12 (stereo not shown) | microbial growth | ATCC33591 MRSA | drug-resistant strain | – | IC50 | 2.68 mg/L (≈ 4.35 µM)
CC[C@H](C)[C@H](NC(=O)[C@H](C)NC(=O)[C@@H](NC(=O)[C@H](C)NC(=O)CNC(=O)[C@H](CCSC)NC(=O)[C@H](CCC(N)=O)NC(=O)[C@H](CC(C)C)NC(=O)[C@H](CO)NC(=O)[C@@H](N)Cc1ccc(O)cc1)[C@@H](C)O)C(=O)N[C@@H](CCCCN)C(=O)N[C@@H](CCC(N)=O)C(=O)N[C@H](C(=O)N[C@@H](CCCCN)C(=O)N[C@@H](CCCCN)C(=O)N[C@@H](CC(C)C)C(=O)N[C@@H](Cc1ccccc1)C(=O)N[C@@H](CCCCN)C(=O)N[C@@H](CCCCN)C(=O)N[C@@H](CCCCN)C(=O)NCC(=O)NCC(N)=O)C(C)C | – | ATCC 25923 | 24 h, 37 °C | – | MBC | 78 µM

For quick reference, copied from above:
Substance | test | test system | setting | how to read | measurement | value
CCCCCCCCOc1c(OC)cc(NC(C)CCCNC(=O)C(N)Cc2ccccc2)c2nc(C(C)(C)C)ccc12 (stereo not shown) | bacterial growth | MRSA ATCC 33591 | – | – | IC50 | > 20 mg/L
ACPIFTKIQGTYRGKAKCK (disulfide 2-18 (inferred)) (disulfide) | – | ATCC 8530 | MBC, 2 h, pH 7.4, 37 °C, together with: E. coli K-235 LPS at peptide:LPS 1:5 w/w | – | antibacterial activity | inhibited
